Measured values gathered from unrelated publications.
Protocols differ between the studies behind these lines.
CDK14: Cyclin-dependent kinase 14 (CDK14, Homo sapiens, UniProt O94921)
CDK14 with cyclin Y: Cyclin-dependent kinase 14, with cyclin Y (CDK14, Homo sapiens, UniProt O94921)

`CNC(=O)C1CCN(c2cc(C)c(F)cc2NC(=O)c2ccc(-c3cc(O)ccc3C)c(C)c2)CC1` has a remaining binding of 96% (CDK14; binding, competition with immobilised ligand; 1 µM).
For `C=CC(=O)N1CCCC(n2c(=O)c3ncccc3n(Cc3ccc(Oc4ccccc4)cc3)c2=O)C1` (stereo not drawn), the remaining binding was 98% (CDK14; cell-free assay, competition with immobilised ligand; 1 µM).
For `COc1cc(Nc2nc(C)cc(-c3cnn4nc(OC)ccc34)n2)cc(C(F)(F)F)c1`, the remaining activity was 87% (CDK14; inhibitor; 1 µM, PFTK1; reference: control).
The inhibition of `CN1CC[C@@H](COc2cnc(C#N)cc2-c2ccn3nc(NC(=O)C4CC4)cc3c2)C1` is reported as -12% (CDK14 with cyclin Y; enzyme activity, inhibitor; 1 µM).
`COc1c(Cl)cccc1Nc1c(-c2ccncc2C#C[C@@]2(C)CCCN2C(=O)/C=C/CN(C)C)[nH]c2c1C(=O)NCC2` gave a remaining binding of 94% (CDK14; binding, competition with immobilised ligand; 3 µM).
`C=CC(=O)N1CCc2ccc(-n3c(=O)ccc4cnc5ccc(-c6cnn(C)c6)cc5c43)cc21` has a remaining binding of 96% (CDK14; KINOMEscan; 1 µM; reference: DMSO control).
With `CCN1CCN(Cc2ccc(C(=O)Nc3ccc(C)c(NCc4cnc5[nH]ccc5c4OC)c3)cc2C(F)(F)F)CC1` the remaining binding was 98% (CDK14; binding, competition with immobilised ligand; 1 µM).
For `CC(C)=CC1OC(C)(C)C2C=C3C(=O)C(Cl)=CC(O)C3C3C(O)C4OC4C(=O)C132` (stereo not drawn), the remaining binding was 95% (CDK14; cell-free assay, competition with immobilised ligand; 10 µM).
Under “percent of control”, `Cc1cnc2nc1Nc1cccc(c1)COC/C=C/COCc1cc(ccc1OCCN1CCOCC1)N2` is recorded as 97% (CDK14; concentration not given, gene name PFTK1).
`CN1CCN(Cc2ccc(-c3ccc(CO[C@H]4CCC[C@@H]4NC(=O)c4cc(-c5cnn(C)c5)cnc4N)cc3)cc2)CC1` gave an inhibition of 2% (CDK14 with cyclin Y; enzyme activity, inhibitor; 0.1 µM).
For `CNC(=O)C[C@H](Cc1ccc(C#N)cc1)NC(=O)c1cc(-c2ccc(CN[C@H](C)c3ccc(C)cc3)o2)ccc1Cl`, “activity vs control” read 105% (CDK14 with cyclin Y; enzyme activity, inhibitor; 1 µM).
`CCn1cc(C(=O)O)c(=O)c2c(N)c(F)c(NC3CCCCC3)cc21` gave an inhibition of 10.8% (CDK14 with cyclin Y; kinase activity; 0.1 µM, added: ATP at Km).
For `Nc1ncc2c(n1)-c1c([nH]c3ccc(C4=CCOCC4)cc13)CCC2`, the remaining binding was 100% (CDK14; binding, competition with immobilised ligand; 1 µM).
For `CNC1C[S+]2CC[S+]3CC[S+](C1)[Ru-4]321([N]=C=S)[n]2c3ccc(OC)cc3c3c4c(c5cc(F)c[n+]1c5c32)C(=O)NC4=O` (stereo not drawn), the remaining binding was 95% (CDK14; KinomeScan; 0.1 µM; reference: untreated).
The remaining binding of `Cc1ccc(-c2c(/C=C(\C#N)C(=O)NC(C)C)n(CCCO)c3ncnc(N)c23)cc1` is reported as 94% (CDK14; cell-free assay, competition with immobilised ligand; 1 µM).
`O=C(Cc1ccc(OCc2ccccc2)cc1)NC1(C(=O)O)CCN(C(=O)c2ccc(-c3cccc(Cl)c3)cc2)CC1` — result for “activity vs control”: 102% (CDK14 with cyclin Y; enzyme activity, inhibitor; 10 µM).
`COc1cc(Nc2nccc(-c3cnn4nc(OC)ccc34)n2)cc(C(F)(F)F)c1` gave a remaining binding of 79% (CDK14; binding, competition with immobilised ligand; 1 µM).
`C=CC(=O)N1Cc2nc(-c3cc(-c4cc(Cl)cnc4Cl)c(F)cc3F)n(-c3ccncn3)c2C1` has an inhibition of 0.2% (CDK14 with cyclin Y; cell-free assay, inhibitor; 1 µM).

Repeated from above:
Under “percent of control”, `Cc1cnc2nc1Nc1cccc(c1)COC/C=C/COCc1cc(ccc1OCCN1CCOCC1)N2` is recorded as 97% (CDK14; concentration not given, gene name PFTK1).
`CN1CCN(Cc2ccc(-c3ccc(CO[C@H]4CCC[C@@H]4NC(=O)c4cc(-c5cnn(C)c5)cnc4N)cc3)cc2)CC1` gave an inhibition of 2% (CDK14 with cyclin Y; enzyme activity, inhibitor; 0.1 µM).
